Literature values as cited in several papers.
Numbers after ± are the reported error.

O=C1c2ccccc2-c2c1c1ccc([N+](=O)[O-])cc1c(=O)n2CCCN1CCOCC1
GI50 (renal SN12C; cell growth): 0.309 µM

O=c1[nH]cc(F)c(=O)[nH]1
CC50 (human gingival fibroblasts): > 1000 µM

O=C1c2ccccc2-c2c1c1ccc([N+](=O)[O-])cc1c(=O)n2C[C@H](O)CO
GI50 (colon HCT-116; cell growth): 0.025 µM

COc1cc(O)c(CC=C(C)C)c(O)c1C(=O)/C=C/c1ccc(O)cc1
IC50 (A549; cytotoxicity; 48 h, approximate conversion from µg/mL): ~12.1 µM

O=C1c2ccccc2-c2c1c1ccc([N+](=O)[O-])cc1c(=O)n2CCCn1ccnc1
GI50 (ovarian OVCAR-3; cell growth): 0.864 µM

COc1cc(/C=C2\CCC/C(=C\c3ccc([N+](=O)[O-])cc3)C2=O)cc(OC)c1OC
CC50 (HGF, HPC, HPLF normal cells): 354 µM

Cc1nc2cccc(OCC(C)(C)C(=O)NC(C)C)c2c(N)c1C(=O)[O-].[Na+]
chromosomal aberration test (primary human lymphocytes; up to 500 µg/mL, with and without S9): negative

CCN(CC)CCNC(=O)c1c(C)[nH]c(/C=C2\C(=O)Nc3ccc(F)cc32)c1C
lowest effective concentration (hiPSC-derived cardiomyocytes; contractility; 72 h): 0.81 µM

CC[C@H]1OC(=O)[C@H](C)[C@@H](O[C@H]2C[C@@](C)(OC)[C@@H](O)[C@H](C)O2)[C@H](C)[C@@H](O[C@@H]2O[C@H](C)C[C@H](N(C)C)[C@H]2O)[C@](C)(OC)C[C@@H](C)C(=O)[C@H](C)[C@@H](O)[C@]1(C)O
concentration for FPDc prolongation (hiPSC-derived cardiomyocytes; 10% FPDc prolongation; concentration not given, unit not given; relative to: free plasma concentration): 13

COc1cc2c3c(n(CCCN4CCOCC4)c(=O)c2cc1OC)-c1cc2c(cc1C3=O)OCO2
GI50 (NCI-60 panel (60 lines); mean graph midpoint): 4.64 ± 1.25 µM

O=C1/C(=C/c2ccc(Cl)cc2)CCC/C1=C\c1ccc([N+](=O)[O-])cc1
CC50 (HGF, HPC, HPLF normal cells): 289 µM

COc1ccc(/C=C/c2coc3ccc(OC)cc3c2=O)cc1
CC50 (Ca9-22): 6.4 ± 2.4 µM

CNC(=O)c1ccccc1Sc1ccc2c(/C=C/c3ccccn3)n[nH]c2c1
log2 fold change (hiPSC-derived cardiomyocytes; contractility; concentration not given, 72 h, at effective concentration; relative to: baseline): 0.44

CCCCCCCCCCCCCCCCCO[C@@H]1O[C@H](CO)[C@@H](O)[C@H](O)[C@H]1O
EC50 (B16-F10; cytotoxicity, MTT; 24 h): 38 µM

COC(=O)c1ccc2c3c(n(CCCn4ccnc4)c(=O)c2c1)-c1ccccc1C3=O
GI50 (NCI-60 panel mean; cell growth): 5.37 µM

C[C@@H](Oc1cc(-c2cnn(C3CCNCC3)c2)cnc1N)c1c(Cl)ccc(F)c1Cl
log2 fold change (hiPSC-derived cardiomyocytes; contractility; concentration not given, 72 h, at effective concentration; relative to: baseline): 0.59

Cc1ccc(OCC(=O)N(Cc2cccs2)c2ccn[nH]2)cc1
chromosome aberration result (human peripheral blood lymphocytes; up to 270 µg/mL, with and without S9): negative

c1ccc2c(c1)cc1ccc3cccc4ccc2c1c34
lowest effective concentration (primary human hepatocytes; DNA damage, comet): 6.3 µM

C#Cc1cccc(Nc2ncnc3cc(OCCOC)c(OCCOC)cc23)c1
lowest effective concentration (hiPSC-derived cardiomyocytes; contractility; 72 h): 63.4 µM

N=C(N)c1ccc(OCCCCCOc2ccc(C(=N)N)cc2)cc1
IC50 (A549; cytotoxicity): 24 µM

CNC(=O)c1cc(Oc2ccc(NC(=O)Nc3ccc(Cl)c(C(F)(F)F)c3)cc2)ccn1
lowest effective concentration (hiPSC-derived cardiomyocytes; contractility; 72 h): 2.51 µM

COc1ccc2occ(/C=C/c3ccc(O)cc3)c(=O)c2c1
CC50 (Ca9-22): 2 ± 1.2 µM

COc1cc2c(Nc3ccc(Br)cc3F)ncnc2cc1OCC1CCN(C)CC1
log2 fold change (hiPSC-derived cardiomyocytes; contractility; concentration not given, 72 h, at effective concentration; relative to: baseline): 2.47

COc1ccc2occ(/C=C/c3cc(OC)c(OC)c(OC)c3)c(=O)c2c1
CC50 (human gingival fibroblasts): 339 ± 183 µM

Cc1nc(Nc2ncc(C(=O)Nc3c(C)cccc3Cl)s2)cc(N2CCN(CCO)CC2)n1
lowest effective concentration (hiPSC-derived cardiomyocytes; contractility; 72 h): 1.2 µM

COc1cccc2c1C(=O)c1c(O)c3c(c(O)c1C2=O)C[C@@](O)(C(=O)CO)C[C@@H]3O[C@H]1C[C@H](N)[C@H](O)[C@H](C)O1
CC50 (Ca9-22): 0.15 ± 0.077 µM

COc1cc(Nc2c(C#N)cnc3cc(OCCCN4CCN(C)CC4)c(OC)cc23)c(Cl)cc1Cl
beating cessation concentration (hiPSC-derived cardiomyocytes; 72 h, tested 0 to 100 µM): 33 µM

COc1cc(/C=C/C(=O)NCCc2ccc(O)cc2)ccc1O
IC50 (RAW264.7; cytotoxicity; 24 h): > 100 µM

A few entries again:
Cc1ccc(OCC(=O)N(Cc2cccs2)c2ccn[nH]2)cc1
chromosome aberration result (human peripheral blood lymphocytes; up to 270 µg/mL, with and without S9): negative

c1ccc2c(c1)cc1ccc3cccc4ccc2c1c34
lowest effective concentration (primary human hepatocytes; DNA damage, comet): 6.3 µM

C#Cc1cccc(Nc2ncnc3cc(OCCOC)c(OCCOC)cc23)c1
lowest effective concentration (hiPSC-derived cardiomyocytes; contractility; 72 h): 63.4 µM

N=C(N)c1ccc(OCCCCCOc2ccc(C(=N)N)cc2)cc1
IC50 (A549; cytotoxicity): 24 µM

CNC(=O)c1cc(Oc2ccc(NC(=O)Nc3ccc(Cl)c(C(F)(F)F)c3)cc2)ccn1
lowest effective concentration (hiPSC-derived cardiomyocytes; contractility; 72 h): 2.51 µM
